Assay results from different studies.
Compare with care: the assays were run in different laboratories. Values joined by “and” are separate records of one study, mostly repeats; a detail may differ.

SMILES	assay	system	conditions	measurement	value
O=C(c1cc(-n2sc3ncccc3c2=O)ccc1Cl)N1CCOCC1	–	mouse	iv, 1 mg/kg	plasma half-life	< 40 min
Cc1cc([C@H]2C[C@H]3[C@@H](CF)SC(N)=N[C@@]3(c3ccc(F)cc3F)CO2)on1	–	male 129/SVE wild-type mouse, plasma	subcutaneous, 100 mg/kg, 14 h	plasma concentration	0.032 µM
CC(C)(C)c1cc(NC(=O)Nc2ccc(Oc3ccnc4[nH]c(=O)cnc34)cc2F)n(-c2ccccc2)n1	–	NSG mouse, female, plasma	oral, 20 mg/kg, 1 h after last dose	plasma concentration	26.1 µM and 25.4 µM and 29.9 µM and 20.8 µM and 27.7 µM
c1ccc(-c2nc(N3CCC(c4ccccn4)C3)c3ccccc3n2)nc1 (stereo not drawn)	–	mouse, Balb/c female, plasma	oral, 12.5 mg/kg, 4 h, mean, together with: aminobenzotriazole pretreatment	plasma concentration	3780 ng/mL
C[C@@H](O)[C@H]1C(=O)N2C(C(=O)O)=C(S[C@@H]3CN[C@H](C(=O)N(C)C)C3)[C@H](C)[C@H]12	–	BALB/c mouse, male, plasma	intraperitoneal, dose not given, 6 h, together with: combination treatment	plasma concentration	5320 ng/mL
CCCCCN1C[C@H](O)[C@@H](O)[C@H](O)[C@@H]1CO	LC-MS/MS	mouse Hexb-/- female, plasma	30 mg/kg/day, geometric mean	plasma concentration	312 ng/mL
CCn1c2ccc(CNCCOCCOCCOCCC(=O)NCCOc3ccc(CCc4nc5cc(-c6c(C)noc6C)ccc5n4CCN4CCOCC4)cc3F)cc2c2ccc(-c3cc(C)cs3)cc21	–	Swiss albino mouse, male, plasma	intraperitoneal, 50 mg/kg, over 8 h	plasma exposure	> 400 nM
C/C=C/C[C@H](C)[C@@H](OC)[C@@H](C)[C@H](O)C[C@H]1OC(=O)C=C[C@H]1CC	–	mouse	–	plasma protein binding	98%
Cc1noc(C)c1-c1ccc2nc(-c3cnn(CC(C)(C)O)c3)nc(N3CCOC[C@@H]3c3ccccc3)c2c1	–	CD-1 mouse, plasma	intravenous, 2 mg/kg	plasma clearance	7.3 mL/min/kg

Repeated from above:
SMILES	assay	system	conditions	measurement	value
c1ccc(-c2nc(N3CCC(c4ccccn4)C3)c3ccccc3n2)nc1 (stereo not drawn)	–	mouse, Balb/c female, plasma	oral, 12.5 mg/kg, 4 h, mean, together with: aminobenzotriazole pretreatment	plasma concentration	3780 ng/mL
